Measurements collected from several papers.
Parts stem from different laboratories: compare values within a part only.

Series 1 — method: universal PBM; form: double-stranded DNA, one strand shown; matrix: in vitro; tested at: not given; reading: higher = stronger binding
Target: Sal-like protein 4, full length isoform B (SALL4, Homo sapiens, UniProt Q9UJQ4-2, residues 1-616)
Setting: 8-mer, flanks averaged, mean of replicates
Construct (chain): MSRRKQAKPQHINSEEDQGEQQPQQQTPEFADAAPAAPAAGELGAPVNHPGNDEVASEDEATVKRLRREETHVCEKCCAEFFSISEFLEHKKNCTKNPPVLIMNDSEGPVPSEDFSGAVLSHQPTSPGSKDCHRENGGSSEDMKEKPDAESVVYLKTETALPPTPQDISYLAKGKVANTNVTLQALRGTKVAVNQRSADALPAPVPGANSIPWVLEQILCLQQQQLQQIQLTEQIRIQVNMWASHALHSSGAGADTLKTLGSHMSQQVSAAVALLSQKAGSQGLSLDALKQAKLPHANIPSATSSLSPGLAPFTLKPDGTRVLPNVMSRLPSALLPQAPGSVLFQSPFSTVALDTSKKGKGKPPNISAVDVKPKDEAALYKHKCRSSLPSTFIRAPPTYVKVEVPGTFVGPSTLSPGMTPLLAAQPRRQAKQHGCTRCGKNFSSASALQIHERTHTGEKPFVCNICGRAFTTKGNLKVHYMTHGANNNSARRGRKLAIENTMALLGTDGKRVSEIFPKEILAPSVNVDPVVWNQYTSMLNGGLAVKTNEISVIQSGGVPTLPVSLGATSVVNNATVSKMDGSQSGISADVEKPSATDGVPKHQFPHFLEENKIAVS
For `AATATTCG`, the E-score was 0.364.
The E-score of `GAAGTCGA` is reported as -0.0305.
The E-score of `AATAGCAT` is reported as 0.232.
`CTTTTCAC` has an E-score of 0.0258.
With `AAACATAC` the E-score was 0.197.

Series 2 — method: RNAcompete; form: RNA; matrix: in vitro; tested at: 20 nM; setting: 7-mer, probes averaged, single round; baseline: mean of 7-mers; reading: higher = stronger binding
Target: PABPC1L2, full length, GST fusion (mouse, UniProt A0ABA7IW68)
Target sequence (chain): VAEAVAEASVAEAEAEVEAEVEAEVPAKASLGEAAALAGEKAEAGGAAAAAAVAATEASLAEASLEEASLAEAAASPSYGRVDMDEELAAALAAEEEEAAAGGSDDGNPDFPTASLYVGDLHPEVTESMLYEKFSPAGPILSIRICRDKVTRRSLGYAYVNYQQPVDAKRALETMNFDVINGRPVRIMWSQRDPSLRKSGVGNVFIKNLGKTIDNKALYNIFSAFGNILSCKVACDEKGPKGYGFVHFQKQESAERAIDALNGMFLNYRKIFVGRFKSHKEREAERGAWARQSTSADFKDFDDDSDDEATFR
`CUGCUAC` has a 7-mer Z-score of -0.309.
With `UUCACUC` the 7-mer Z-score was -0.373.
With `AAAAGAG` the 7-mer Z-score was 6.77.
`UAUUGUA` gave a 7-mer Z-score of -0.215.

Series 3 — method: protein binding microarray; form: double-stranded DNA, one strand shown; matrix: in vitro; tested at: not given; baseline: not given; reading: higher = stronger binding
Target: Histone acetyltransferase KAT6A, both winged helices, GST fusion (KAT6A, Homo sapiens, UniProt Q92794, residues 1-181)
Setting: 8-mer, flanks averaged, mean of 2 arrays, mostly near background
Target sequence (chain): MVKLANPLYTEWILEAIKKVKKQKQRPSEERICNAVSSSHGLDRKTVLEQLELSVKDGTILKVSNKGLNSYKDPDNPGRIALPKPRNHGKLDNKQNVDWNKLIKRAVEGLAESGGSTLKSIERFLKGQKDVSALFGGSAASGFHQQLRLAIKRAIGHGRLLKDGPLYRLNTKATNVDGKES
For `CGCTCACG`, the E-score was 0.293.
With `CTCGGTAA` the E-score was 0.0497.
`CAATGGTA` gave an E-score of -0.0343.
`CCAGGCCG` has an E-score of 0.0429.

Single results of other studies
`PhoQ, residues 284 288 289 292 302 303 ASASEQ` gave a fold induction of 2.62 (PhoP, residues 12 14 15 18 19 TTLRV (Escherichia coli, UniProt P23836); Sort-seq, measured: YFP reporter; E. coli; PhoQ-PhoP variant library, together with: 10 µM Mg2+; baseline: high Mg2+ state, higher = stronger signaling).

A few entries again (series 2):
`CUGCUAC` has a 7-mer Z-score of -0.309.
